# Assay results from different studies.
# Compare with care: the assays were run in different laboratories.
SMILES,test,test system,setting,emission maximum [nm]
CCOC(=O)c1[nH]c(C)c(/C=C/c2c(I)c(C)c3n2[B-](F)(F)[N+]2=C(C)C(I)=C(C)C2=C3c2cc(OC)cc(OC)c2)c1C,,THF,,632
CC1=CC(C)=[N+]2C1=C(c1ccc(C[P+](c3ccccc3)(c3ccccc3)C3CCCCC3)cc1)c1c(C)cc(C)n1[B-]2(F)F,,PBS,"10 µM, pH 7.4, 298 K, with: excitation 497 nm",511
NCCC(=O)N1Cc2ccccc2-c2c(nnn2-c2nc(N)c3ncn(C4OC(CO)C(O)C4O)c3n2)-c2ccccc21 (mixture of isomers),,methanol,,428
CC1(C)C(=CC=C(C=CC2=[N+](CCC[N+](C)(C)C)c3ccc(S(=O)(=O)[O-])cc3C2(C)C)CCC(=O)[O-])N(CCC[N+](C)(C)C)c2ccc(S(=O)(=O)[O-])cc21,,100% serum,pH 7.4,660
COC(=O)c1ccccc1-c1c2ccc(=O)cc-2oc2c1ccc1cccc(OC)c12,,phosphate buffer,"pH 7.4, 10% DMSO",580
CCn1cc(/C=C/c2sc3ccccc3[n+]2CC)c2ccccc21,,DMSO,with: excitation 488 nm,547
NCCC(=O)N1Cc2ccccc2-c2c(nnn2-c2nc3c(N)ncnc3n2C2OC(CO)C(O)C2O)-c2ccccc21 (mixture of isomers),,DMSO,,429
COc1cc(OC)cc(C2=C3C(C)=C(I)C(C)=[N+]3[B-](F)(F)n3c(/C=C/c4c[nH]c5ccccc45)c(I)c(C)c32)c1,,THF,,668
CCCCN1C(=O)c2cccc3c(NCCCCCCN4CCOCC4)ccc(c23)C1=O,,water,pH 6.0,556
O=c1c(Br)c2oc3c(CN(Cc4ccccn4)Cc4cnccn4)c(O)ccc3nc-2c2ccccc12,,PIPES buffer,"pH 7.0, metal-free",625
COc1cc(OC)cc(C2=C3C(C)=C(I)C(C)=[N+]3[B-](F)(F)n3c(C)c(I)c(C)c32)c1,,DMSO,,551
CCN(CC)c1ccc2c(-c3ccc(S(=O)(=O)NCCOCCOCCOCCOCCC(=O)NCCCCNC(=O)Cc4c(C)n(C(=O)c5ccc(Cl)cc5)c5ccc(OC)cc45)cc3S(=O)(=O)[O-])c3ccc(=[N+](CC)CC)cc-3oc2c1,fluorescence spectroscopy,,pH 7,593
Nc1nc(-n2nnc3c2CCC2C(CO)C2CC3)nc2c1ncn2C1OC(CO)C(O)C1O (mixture of isomers),,methanol,,395
CCCCCCCCCCCCCCCC(=O)OCC(COP(=O)([O-])OCC[N+](C)(C)Cc1cn(-c2cc3ccc(OC(=O)Oc4ccc(CCC(=O)C(F)(F)F)cc4)cc3oc2=O)nn1)OC(=O)CCCCCCCCCCCCCCC (stereo not drawn),,,,471
COCCOCCOCCOc1ccc(/C=C/C2=[N+]3C(=C(c4cc(OC)cc(OC)c4)c4c(C)c(I)c(/C=C/c5ccc(OCCOCCOCCOC)cc5)n4[B-]3(F)F)C(C)=C2I)cc1,,THF,,684
COc1ccc2cc(-c3ccc(-c4ccc(C)cn4)nc3)oc2c1,,aqueous HEPES buffer,"pH 7.4, zinc-free ligand",478
CCOC(=O)c1[nH]c(C)c(/C=C/C2=[N+]3C(=C(c4cc(OC)cc(OC)c4)c4c(C)c(I)c(/C=C/c5c(C)[nH]c(C(=O)OCC)c5C)n4[B-]3(F)F)C(C)=C2I)c1C,,dichloromethane,,710
Cc1ccc(-c2ccc(-c3cc4sccc4o3)cn2)nc1,,aqueous HEPES buffer,"pH 7.4, zinc-free ligand",459

# For quick reference, copied from above:
SMILES,test,test system,setting,emission maximum [nm]
O=c1c(Br)c2oc3c(CN(Cc4ccccn4)Cc4cnccn4)c(O)ccc3nc-2c2ccccc12,,PIPES buffer,"pH 7.0, metal-free",625
COc1cc(OC)cc(C2=C3C(C)=C(I)C(C)=[N+]3[B-](F)(F)n3c(C)c(I)c(C)c32)c1,,DMSO,,551
